Experimental data collected from several papers.
Lines come from different studies, so protocols differ. ± marks the error that the study gave.
Method: steady-state kinetics
B1: pylS (Methanosarcina mazei, UniProt Q8PWY1); chain MDKKPLNTLISATGLWMSRTGTIHKIKHHEVSRSKIYIEMACGDHLVVNNSRSSRTARALRHHKYRKTCKRCRVSDEDLNKFLTKANEDQTSVKVKVVSAPTRTKKAMPKSVARAPKPLENTEAAQAQPSGSKFSPAIPVSTQESVSVPASVSTSISSISTGATASALVKGNTNPITSMSAPVQASAPALTKSQTDRLEVLLNPKDEISLNSGKPFRELESELLSRRKKDLQQIYAEERENYLGKLEREITRFFVDRGFLEIKSPILIPLEYIERMGIDNDTELSKQIFRVDKNFCLRPMLAPNLYNYLRKLDRALPDPIKIFEIGPCYRKESDGKEHLEEFTMLNFCQMGSGCTRENLESIITDFLNHLGIDFKIVGDSCMVYGDTLDVMHGDLELSSAVVGPIPLDREWGIDKPWIGAGFGLERLLKVKHDFKNIKRAARSESYYNGISTNL
B2: PDE4A (Homo sapiens, UniProt P27815); chain NIPRFGVKTDQEELLAQELENLNKWGLNIFCVSDYAGGRSLTCIMYMIFQERDLLKKFRIPVDTMVTYMLTLEDHYHADVAYHNSLHAADVLQSTHVLLATPALDAVFTDLEILAALFAAAIHDVDHPGVSNQFLINTNSELALMYNDESVLENHHLAVGFKLLQEDNCDIFQNLSKRQRQSLRKMVIDMVLATDMSKHMTLLADLKTMVETKKVTSSGVLLLDNYSDRIQVLRNMVHCADLSNPTKPLELYRQWTDRIMAEFFQQGDRERERGMEISPMCDKHTASVEKSQVGFIDYIVHPLWETWADLVHPDAQEILDTLEDNRDWYYSAI
B3: enzyme N249W (Thermobifida fusca, UniProt Q47RK4); chain MTDVYILDAVRTPFGRYGGALSGIRPDDLAAHVLRALAERSPGLDPAAVDDVFFGDANGAGEDNRNVARMAALLAGWPTSVPGVTLNRLCGSGMESVIAANRAIAVGDASLAVAGGVESMSRAPWVLPKPAQGFPTGHETLYSTTLGWRMVNPAMPEQWTVSLGESTEQVAATYGISRAEQDAFALRSHERAARAWAEGVFDAEITQIPGAELERDESIRETSAEKLAALKPAFRPDGTITAGNASPLWDGAAALLIGDAAAAERVGREPLARIVSRGVAAVDPDVFGIGPVQAAEIALRRAGIGWDDLSVVELNEAFAAQSLACLKLWPDLDPEIVNPNGGAIAIGHPLGASGARIVGTLAHELHRRGGGWGLAAICIGVGQGLAVVLHR
B4: enzyme (Allochromatium vinosum, UniProt P45370); chain MFPIDIRPDKLTQEMLDYSRKLGQGMENLLNAEAIDTGVSPKQAVYSEDKLVLYRYDRPEGAPEAQPVPLLIVYALVNRPYMTDIQEDRSTIKGLLATGQDVYLIDWGYPDQADRALTLDDYINGYIDRCVDYLREAHGVDKVNLLGICQGGAFSLMYSALHPDKVRNLVTMVTPVDFKTPDNLLSAWVQNVDIDLAVDTMGNIPGELLNWTFLSLKPFSLTGQKYVNMVDLLDDPDKVKNFLRMEKWIFDSPDQAGETFRQFIKDFYQNNGFLNGGVVLGGQEVDLKDITCPVLNIFALQDHLVPPDASRALKGLTSSPDYTELAFPGGHIGIYVSGKAQKEVTPAIGKWLNER
B5: enzyme H323A (Acetivibrio thermocellus, UniProt A3DJ38); chain MKLTIPELSLVVLIGSSGSGKSTFAKKHFKPTEVISSDFCRGLVSDDENDQTVTGAAFDVLHYIVSKRLQLGKLTVVDATNVQESARKPLIEIAKDYHCFPVAVVFNLPEKVCQERNKNRTDRQVEEYVIRKHTQQLKKSIKGLQREGFRYVYILNSPEEVEEVVFERQPLWNNKKDEHGPFDIIGDIHGCYDELKMLLEKLGYLIEEVEGGVGSGKYRVTHPEGRKVLFLGDLVDRGPKITEVLKLVMGMVKSGIALCVPGNHDVKLLRKLNGRDVQITHGLDRTLEQLAKEPQEFIEEVKAFIDGLVSHYVLDDGKLVVAAAGMKEEFQGRGSGKVREFALYGETTGETDEYGLPVRYDWASDYRGKALVVYGHTPQAEVLKVNNTINIDTGCVFGGKLTAYRYPEREIVDVKALKTYYEPAKPFLPKEDMAERFEARTDNDILDINDVLGKKIITTRLMSSITIHEENSIAALEVMSRFAADPHWLIYLPPTMSPCETSKKEGMLEHPIEAFEYFRTRGVGKVVCEQKHMGSRAVVIVCKDSQVAEKRFGVLDGTAGICYTRTGRHFFDDMQLEAELIDRVRKVLDKSGFWGDFNTDWVCLDCELMPWSAKAQKLLEEQYSAVGISGRVVLDEAVKLLKQASLNKTVSFDVSRQTSGKNADINELLQRFTERSEMMQKYVEAYRKYCWPVNSIDDLKLAPFHILATEGKVHSDKNHIWHMDTIAKYCTQDDSLIMATNHILVDVTDAESVDKGIKWWEDLTASGGEGMVVKPYDFIVKNGRELLQPAVKCRGREYLRIIYGPEYTMDENIERLRNRAVGKKRSLALREFSLGMEALERFVRNEPLYRVHECVFGVLALESEPVDPRL
B6: nitrilase (Rhodococcus rhodochrous, UniProt A4LA85); chain MVEYTNTFKVAAVQAQPVWFDAAKTVDKTVSIIAEAARNGCELVAFPEVFIPGYPYHIWVDSPLAGMAKFAVRYHENSLTMDSPHVQRLLDAARDHNIAVVVGISERDGGSLYMTQLIIDADGQLVARRRKLKPTHVERSVYGEGNGSDISVYDMPFARLGALNCWEHFQTLTKYAMYSMHEQVHVASWPGMSLYQPEVPAFGVDAQLTATRMYALEGQTFVVCTTQVVTPEAHEFFCENEEQRKLIGRGGGFARIIGPDGRDLATPLAEDEEGILYADIDLSAITLAKQAADPVGHYSRPDVLSLNFNQRRTTPVNTPLSTIHATHTFVPQFGALDGVRELNGADEQRALPSTHSDETDRATASI
B7: Lxyl-p1-1 A72T (Lentinula edodes, UniProt G8GLN9); chain YFSGLGLGSERSIFRRDLNSTGDESNSTQWPAPLANGGKSWASAFKKAKSTVTEMTVEELANITSGVIGLCVGVTGAVTRLGIPELCLQDGPIGPRGVHGSSQFPAGLTVAATWDRTLMYARARGMGQEFHDQGVHIALAPVTGGPLGRTPLNGRGWEGTFADPYACGEASYQSVKGLTDAGVATVSKHWIAYEQETSRNLYIEFDGVSQADIQLPISSNVDDLTMHELYMWSFAEAVRAGTNHIMCSYNRINNTHSCNNAKGLNQLLKTELNFQGGVVSDWGGQWDSVLSAENGLDVGMPGEGFLGELGDFWGTTLADLINNGTVSEDLVRDKVVRLLTGYYYLGQDINPPPPFVYNTIGAPTLNATSGYRNVRKPGTAELIKEIGSASVTLLKNTGSLPLKHPQRIAVLGNDATYNVLGPNACGLANSACDIDNLNGTLTTGGGSGSALSPYTITPLEALQKRAIEDNAEIAAVVANSNTTTGAEDAIAALLPDADVTFVFLNRYSEEGADAPDFSLGGDGDNLMDLAVTYSSNVVVVIHTTGVVDIEKWADNPNVTAILVAYLPGQEAGNSLVPVLYGDVAPSGKLPWTWGKSIDDYVPNGVVYTDAYSPQSNFTEGVFIDYRWFDKMGITPRYEFGFGLSYTTFTYSNLIVDHGRWAKDYSSVMETAEPFAEWDGTNSLYDVIFTVFATITNTGNLTGSEVAQLYISIPGDNQPVRQLRGFDKIKDLPVGDSAVVTFPIRRKDVSSWSVVDQLWYVPNGDFLISVGGSSRDLPLNTTWTP

Substance	substrate	pH	temperature	notes	added	kcat
dmhA (Campylobacter jejuni, UniProt Q5M6Q7)	Nc1nc2c(ncn2[C@@H]2O[C@H](COP(=O)(O)OP(=O)(O)O[C@H]3O[C@H]([C@H](O)CO)[C@@H](O)[C@H](O)[C@@H]3O)[C@@H](O)[C@H]2O)c(=O)[nH]1	pH 7.5	30 °C			1.64 ± 0.04 s⁻¹
B1 (pylS)	C=CCOC(=O)NCCCC[C@H](N)C(=O)O	pH 7.2	37 °C	apparent		0.001 ± 0.0001 s⁻¹
B2 (PDE4A)	Nc1ncnc2c1ncn2[C@@H]1O[C@@H]2COP(=O)(O)O[C@H]2[C@H]1O	pH 7.5	21 °C			3.7 s⁻¹
B3 (enzyme N249W)	CC(C)(COP(=O)(O)OP(=O)(O)OC[C@H]1O[C@@H](n2cnc3c(N)ncnc32)[C@H](O)[C@@H]1OP(=O)(O)O)[C@@H](O)C(=O)NCCC(=O)NCCSC(=O)CCCC(=O)O	pH 7.4	37 °C			0.00333 ± 0.000333 s⁻¹
B4 (enzyme)	CC(C)(COP(=O)(O)OP(=O)(O)OC[C@H]1O[C@@H](n2cnc3c(N)ncnc32)[C@H](O)[C@@H]1OP(=O)(O)O)[C@@H](O)C(=O)NCCC(=O)NCCSC(=O)C[C@H](O)CN=[N+]=[N-]	pH 7.8	30 °C			20 s⁻¹
GlcAK1 (Arabidopsis thaliana, UniProt A0A1I9LRK4)	Nc1ncnc2c1ncn2[C@@H]1O[C@H](COP(=O)(O)OP(=O)(O)OP(=O)(O)O)[C@@H](O)[C@H]1O	pH 7.5		25 mM KCl, Hill fit	1 mM GlcA; 10 mM MgCl2	8.5 s⁻¹
pyc R472S (Rhizobium etli)	Nc1ncnc2c1ncn2[C@@H]1O[C@H](COP(=O)(O)OP(=O)(O)OP(=O)(O)O)[C@@H](O)[C@H]1O	pH 7.8	30 °C			2 ± 0.2 s⁻¹
B5 (enzyme H323A)	Nc1ncnc2c1ncn2[C@@H]1O[C@H](CO)[C@H]2OP(=O)(O)O[C@H]21	pH 7.5	45 °C			9.1 ± 0.567 s⁻¹
B6 (nitrilase)	N#CCCCC#N	pH 7.5	25 °C			0.000288 ± 5e-06 s⁻¹
OXA-48 (Klebsiella pneumoniae, UniProt Q6XEC0)	C[C@@H](O)[C@H]1C(=O)N2C(C(=O)O)=C(S[C@@H]3CN[C@H](C(=O)N(C)C)C3)[C@H](C)[C@H]12	pH 7.2	30 °C			0.11 ± 0.01 s⁻¹
CBCAS (Cannabis sativa, UniProt Q33DQ2)	CCCCCc1cc(O)c(C/C=C(\C)CCC=C(C)C)c(O)c1C(=O)O	pH 5.5	40 °C			0.02 s⁻¹
B7 (Lxyl-p1-1 A72T)	[H][C@]12[C@H](OC(=O)c3ccccc3)[C@]3(O)C[C@H](OC(=O)[C@H](O)[C@@H](NC(=O)c4ccccc4)c4ccccc4)C(C)=C([C@@H](O)C(=O)[C@]1(C)[C@@H](O[C@@H]1OC[C@@H](O)[C@H](O)[C@H]1O)C[C@@]1([H])OC[C@@]21OC(C)=O)C3(C)C					5.35 ± 0.51 s⁻¹
plcB (Listeria monocytogenes, UniProt P33378)	CCCC(=O)OC[C@H](COP(=O)([O-])OCC[N+](C)(C)C)OC(=O)CCC	pH 6	37 °C			8 ± 0.4 s⁻¹
CYP2C19 (Homo sapiens, UniProt P33261)	CCOC(=O)C1(c2ccccc2)CCN(C)CC1	pH 7.4				0.467 ± 0.0833 s⁻¹
tmcA (Escherichia coli, UniProt P76562)	Nc1ncnc2c1ncn2[C@@H]1O[C@H](COP(=O)(O)OP(=O)(O)OP(=O)(O)O)[C@@H](O)[C@H]1O	pH 7.8		10 mM KCl, no tRNA, no acetyl-CoA	MgCl2 10 mM	0.00807 s⁻¹

For quick reference, copied from above:
Substance	substrate	pH	temperature	notes	added	kcat
B1 (pylS)	C=CCOC(=O)NCCCC[C@H](N)C(=O)O	pH 7.2	37 °C	apparent		0.001 ± 0.0001 s⁻¹
B2 (PDE4A)	Nc1ncnc2c1ncn2[C@@H]1O[C@@H]2COP(=O)(O)O[C@H]2[C@H]1O	pH 7.5	21 °C			3.7 s⁻¹
